Experimental data pooled from the literature.
Protocols differ between the studies behind these lines. Several values in a cell are separate wells, animals, samples, runs or records. Numbers after ± are the reported error.
Alpha-carbonic anhydrase: Alpha-carbonic anhydrase (Enterococcus faecium, UniProt Q3XYE8)
UniProt Q9UNQ0, sequence (whole entry, looked up): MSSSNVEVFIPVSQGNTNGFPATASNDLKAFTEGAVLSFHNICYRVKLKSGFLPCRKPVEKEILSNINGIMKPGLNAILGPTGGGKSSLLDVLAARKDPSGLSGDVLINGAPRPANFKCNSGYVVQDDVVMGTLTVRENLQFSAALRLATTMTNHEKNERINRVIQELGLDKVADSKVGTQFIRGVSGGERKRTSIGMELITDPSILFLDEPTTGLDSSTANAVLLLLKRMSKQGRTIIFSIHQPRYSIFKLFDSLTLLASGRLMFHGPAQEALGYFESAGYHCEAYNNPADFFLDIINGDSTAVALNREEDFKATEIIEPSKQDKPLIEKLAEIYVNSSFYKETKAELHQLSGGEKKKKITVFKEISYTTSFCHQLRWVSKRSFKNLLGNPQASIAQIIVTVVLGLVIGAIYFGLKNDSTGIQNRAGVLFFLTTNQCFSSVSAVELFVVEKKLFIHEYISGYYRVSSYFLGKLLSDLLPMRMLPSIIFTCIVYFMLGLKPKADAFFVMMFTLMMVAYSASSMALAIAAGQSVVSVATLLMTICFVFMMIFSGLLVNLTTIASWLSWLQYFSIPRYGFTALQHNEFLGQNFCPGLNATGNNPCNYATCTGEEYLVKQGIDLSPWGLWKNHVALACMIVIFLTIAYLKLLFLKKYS
UniProt P08183, sequence (whole entry, looked up): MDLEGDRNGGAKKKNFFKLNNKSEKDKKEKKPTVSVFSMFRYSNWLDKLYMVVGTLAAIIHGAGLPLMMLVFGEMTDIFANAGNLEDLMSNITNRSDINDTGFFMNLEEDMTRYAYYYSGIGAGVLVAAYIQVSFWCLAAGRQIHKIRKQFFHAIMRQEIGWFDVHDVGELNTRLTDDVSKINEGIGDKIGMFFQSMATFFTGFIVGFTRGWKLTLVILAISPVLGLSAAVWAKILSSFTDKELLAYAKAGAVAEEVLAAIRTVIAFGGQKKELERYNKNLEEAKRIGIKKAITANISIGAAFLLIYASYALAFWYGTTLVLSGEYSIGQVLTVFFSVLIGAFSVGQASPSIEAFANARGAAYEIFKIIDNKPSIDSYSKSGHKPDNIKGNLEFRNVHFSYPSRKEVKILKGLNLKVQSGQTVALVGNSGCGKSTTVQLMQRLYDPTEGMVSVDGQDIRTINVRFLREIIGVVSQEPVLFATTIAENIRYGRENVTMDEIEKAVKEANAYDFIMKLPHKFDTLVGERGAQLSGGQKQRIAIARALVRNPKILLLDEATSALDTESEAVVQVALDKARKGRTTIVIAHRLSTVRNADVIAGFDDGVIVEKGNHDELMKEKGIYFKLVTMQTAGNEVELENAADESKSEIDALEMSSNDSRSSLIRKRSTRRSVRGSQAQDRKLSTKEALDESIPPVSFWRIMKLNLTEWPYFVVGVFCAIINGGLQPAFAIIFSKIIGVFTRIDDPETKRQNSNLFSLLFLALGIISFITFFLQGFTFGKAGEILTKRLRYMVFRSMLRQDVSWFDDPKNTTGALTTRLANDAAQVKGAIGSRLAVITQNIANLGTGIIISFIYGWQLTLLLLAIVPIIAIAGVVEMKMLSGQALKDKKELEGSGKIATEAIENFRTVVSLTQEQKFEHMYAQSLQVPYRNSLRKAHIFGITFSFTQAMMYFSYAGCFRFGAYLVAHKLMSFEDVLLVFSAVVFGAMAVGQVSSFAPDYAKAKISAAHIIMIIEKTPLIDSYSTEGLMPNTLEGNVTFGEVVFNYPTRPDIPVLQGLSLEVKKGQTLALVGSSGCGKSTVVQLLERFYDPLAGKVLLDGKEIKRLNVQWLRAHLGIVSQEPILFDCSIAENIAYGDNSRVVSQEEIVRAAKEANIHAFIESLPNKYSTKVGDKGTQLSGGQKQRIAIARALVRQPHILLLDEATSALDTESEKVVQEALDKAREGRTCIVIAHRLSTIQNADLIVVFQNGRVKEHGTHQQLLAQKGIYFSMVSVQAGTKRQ

With `O=C1C(Br)=C(Br)C(=O)c2ccccc21` the germination inhibition was 64.1% (Solanum lycopersicum; seeds; 400 µg/mL, 168 h, 10% DMSO).
Under “z-scored log2 fold change”, `NC(=O)NCCC(=O)O` is recorded as -1.47 (binding, equilibrium dialysis LC-MS; 5 µM, thermostabilized A2AR-BRIL construct; reference: no-protein control, direction not given).
`CC[C@]1(O)C[C@@H]2CN(CCc3c([nH]c4ccccc34)[C@@](C(=O)OC)(c3cc4c(cc3OC)N(C)[C@H]3[C@@](O)(C(=O)OC)[C@H](OC(C)=O)[C@]5(CC)C=CCN6CC[C@]43[C@@H]65)C2)C1`: “micronucleated binucleated cells” 1% (human peripheral blood lymphocytes; in vitro micronucleus; 7.5 ng/mL, 24 h, without S9, DMSO 0.2%).
For `CC[C@H](CO)N(CCN(N=O)[C@H](CC)CO)N=O`, “revertant colonies per plate” read 31.7 ± 6 (Salmonella typhimurium; mutagenicity, Ames plate incorporation; TA98; 50 µg/plate, without S9, methanol).
`Cc1cc(C(=O)NC(C)(C)COc2cccc3c2C(N)=NS(=O)(=O)N3)cc(C)n1` gave a cytotoxicity of 7% (human peripheral blood lymphocytes; CBPI, micronucleus test; 0.2 µg/mL, 4 h, with rat liver S9; reference: vehicle).
`C[C@]12CCCN1CC1=NNC(=O)c3cc(F)cc4[nH]c2c1c34` gave an uptake ratio of 0.83 (ABCG2 (Homo sapiens, UniProt Q9UNQ0); substrate; 0.5 µM; reference: ATP over AMP).
For `Cc1cc(Nc2cc3ncccc3c(N[C@@H]3C[C@H]4CC[C@@H](C3)N4CCC#N)n2)n[nH]1`, “skin subcutaneous disorders incidence” read 0% (healthy human subjects; oral, 30 mg, 2 weeks, single ascending dose).
`CC[C@]1(O)C[C@H]2CN(CCc3c([nH]c4ccccc34)[C@@](C(=O)OC)(c3cc4c(cc3OC)N(C=O)[C@H]3[C@@](O)(C(=O)OC)[C@H](OC(C)=O)[C@]5(CC)C=CCN6CC[C@]43[C@@H]65)C2)C1` has a viability of 14.9% and 15.5% and 18.9% (CHP-212 resistant subline R2 (heterozygous USP7 V517F); cell viability; 3333.33 nM).
The Ki of `CC(C)(C)CCC(=O)Nc1nnc(S(N)(=O)=O)s1` is reported as 0.0659 µM (Alpha-carbonic anhydrase; CO2 hydration, inhibitor, stopped-flow kinetics).
With `CC[C@H]1[C@@H](O)[C@@H]2[C@H](CC[C@]3(C)[C@@H]([C@H](C)CCNC(=O)NS(=O)(=O)c4ccc(C(C)(C)C)cc4)CC[C@@H]23)[C@@]2(C)CC[C@@H](O)C[C@@H]12` the CL/F was 14.3 L/h (ABCB1 (Homo sapiens, UniProt P08183); human, plasma; dose not given, mean, together with: quinidine).
With `C[C@]12CC[C@@H]3c4ccc(O)cc4C[C@@H](CCCCCCCCC[S+]([O-])CCCC(F)(F)C(F)(F)F)[C@H]3[C@@H]1CC[C@@H]2O` (stereo partly shown) the viability was 86.3% and 78.1% and 85.9% (T47D; CCK-8; 10 nM; reference: untreated).
`Cc1ccc(C(=O)Nc2nnc(S(N)(=O)=O)s2)cc1` has a Ki of 0.0382 µM (Alpha-carbonic anhydrase; CO2 hydration, inhibitor, stopped-flow kinetics).
For `c1csc(CNc2cc[nH]n2)c1`, “numerical aberration cells” read 0% (human peripheral blood lymphocytes; 1560 µg/mL, 4 h).
`Cc1cc(Nc2ccc(S(F)(F)(F)(F)F)cc2)n2nc(C(C)(F)F)nc2n1`: “patients with QTcB above threshold” 0% (Plasmodium falciparum; 12-lead Holter ECG; human malaria patients; oral, 400 mg, QTc above 500 ms).
`O=c1[nH]cnc2c1ncn2[C@H]1C[C@H](O)[C@@H](CO)O1` — result for “z-scored log2 fold change”: 0.272 (binding, equilibrium dialysis LC-MS; 5 µM, thermostabilized A2AR-BRIL construct; reference: no-protein control, direction not given).
`CC(C)(C(=O)N1CCOc2c(C#N)cncc2C1)C(F)F` — result for “subjects with adverse event”: 0% (refers to: Vascular disorders; human; oral, 10 mg once daily, 14 days, multiple ascending dose).

For quick reference, copied from above:
`CC[C@]1(O)C[C@@H]2CN(CCc3c([nH]c4ccccc34)[C@@](C(=O)OC)(c3cc4c(cc3OC)N(C)[C@H]3[C@@](O)(C(=O)OC)[C@H](OC(C)=O)[C@]5(CC)C=CCN6CC[C@]43[C@@H]65)C2)C1`: “micronucleated binucleated cells” 1% (human peripheral blood lymphocytes; in vitro micronucleus; 7.5 ng/mL, 24 h, without S9, DMSO 0.2%).
For `Cc1cc(Nc2cc3ncccc3c(N[C@@H]3C[C@H]4CC[C@@H](C3)N4CCC#N)n2)n[nH]1`, “skin subcutaneous disorders incidence” read 0% (healthy human subjects; oral, 30 mg, 2 weeks, single ascending dose).
